Measured values of several laboratories.
Each line is one published result; not all experiments were run side by side. Numbers after ± are the reported error. Converted amounts (≈) assume the structure as drawn.

For `C=CC(=O)N1[C@@H](c2ccc3c(c2)OCO3)c2[nH]c3ccccc3c2C[C@H]1C(=O)N1CCN(C)CC1`, the relative co-enrichment was 100% (human cyclin E1 wild type-3xFLAG:CDK2; co-IP with TMT proteomics, item: DDX5; concentration not given, P17844; relative to: wild type DMSO).
Under “log2 fold change”, `Cc1ncsc1-c1ccc(C(C)NC(=O)C2CC(O)CN2C(=O)C(NC(=O)CCCCCCCCCCN2CCCC(Nc3ncc(Cl)c(Nc4ccccc4S(=O)(=O)C(C)C)n3)C2)C(C)(C)C)cc1` (stereo not shown) is recorded as -1.37 (22Rv1; RNA-seq, item: TUT7 mRNA; concentration not given; relative to: DMSO).
The ΔTm of `O=C(N/N=C/c1cc[n+](CC2CC2)c2ccccc12)N/N=C/c1cc[n+](CC2CC2)c2ccccc12` is reported as 11.8 ± 0.8 °C (telomeric G4 DNA hybrid-2; FRET melting; 1 µM, DNA 0.2 µM).
For `Cn1ncc2cc(-c3cncc(Cl)c3N3CCC4(CCNC4=O)CC3)ccc21`, “log2 fold change” read 3.96 (LS174T; gene expression, microarray, item: VLDLR mRNA; concentration not given, 24 h; relative to: untreated cells).
With `O=C(N/N=C/c1cc[n+](Cc2ccccc2)c2ccccc12)c1cccc(C(=O)N/N=C/c2cc[n+](Cc3ccccc3)c3ccccc23)c1` the ΔTm was 13.6 ± 1.3 °C (telomeric G4 DNA hybrid-2; FRET melting; 1 µM, DNA 0.2 µM).
`COCCOCCOCCNC(=O)Cc1cc(CC(=O)N[C@H]2C[C@H]3C(=O)Nc4cc(OCCOCCOCCOC)cc(n4)C(=O)N4CCC[C@H]4C(=O)Nc4cc(OCCOCCOCCOC)cc(n4)C(=O)N4CCC[C@H]4C(=O)Nc4cc(OCCOCCOCCOC)cc(n4)C(=O)N3C2)cc(CC(=O)N[C@H]2C[C@H]3C(=O)Nc4cc(OCCOCCOCCOC)cc(n4)C(=O)N4CCC[C@H]4C(=O)Nc4cc(OCCOCCOCCOC)cc(n4)C(=O)N4CCC[C@H]4C(=O)Nc4cc(OCCOCCOCCOC)cc(n4)C(=O)N3C2)c1` gave a ΔH of 5.9 ± 0.3 kJ/mol (anion binding, ITC; water; 298 K, added: sodium sulfate).
`O=S(=O)(NCc1ccncc1)c1ccc(C2CCCCC2)cc1` — result for “tubulin β3 staining”: ~1.9 fold (immunohistochemistry; CK-p25 mice female, hippocampal pyramidal layer; ip, 0.3 mg/kg daily, 6 wk; relative to: vehicle).
With `C[n+]1cccc2cc(/C=N/NC(=O)c3cccc(C(=O)N/N=C/c4ccc5c(ccc[n+]5C)c4)c3)ccc21` the ΔTm was 7 ± 1.1 °C (telomeric G4 DNA hybrid-2; FRET melting; 1 µM, DNA 0.2 µM).
Under “log2 fold change”, `c1ccc(-c2n[nH]cc2-c2ccnc3ccccc23)nc1` is recorded as 0.01 (DUN1 (Candida albicans); kinase binding, MIB/MS competition; Candida albicans lysate; 1 µM; relative to: DMSO).
`Nc1ncc(-c2cc(-c3cnn(CC(F)(F)F)c3)ncc2F)nc1C(=O)NC1CNCC(F)C1` (stereo not shown) gave a remaining binding of 100% (ERBB2; KINOMEscan; 1 µM; relative to: DMSO control).
`C=C(NC(=O)c1csc(-c2nc3c(cc2O)-c2nc(cs2)C(=O)NC(C(C)O)C(=O)NC(=C(C)OC)c2nc(cs2)C(=O)NC2c4nc(cs4)C(=O)NC(COC(=O)c4c5c6c(cccc6n4O)COC(=O)C(OC4CC(C)(O)C(N(C)C)C(C)O4)C2OC5)c2nc-3cs2)n1)C(N)=O` (stereo not shown) has an MIC90 of 0.0312 µg/mL (≈ 0.0217 µM) (Enterococcus faecalis; agar dilution; vancomycin-intermediate).
The ΔTm of `CC[n+]1cccc2cc(/C=N/NC(=O)C(=O)N/N=C/c3ccc4c(ccc[n+]4CC)c3)ccc21` is reported as 3.1 ± 1.4 °C (telomeric G4 DNA hybrid-2; FRET melting; 1 µM, DNA 0.2 µM, added: duplex DNA competitor 10 µM).
`CN1CCC[C@]1(C)/C=C/S(=O)(=O)NC(=O)Nc1c2c(cc3c1CCC3)CCC2` gave an IL-18 inhibition of 82.4% (human, whole blood ex vivo; 50 mg twice daily, day 1, 3 h, multiple ascending dose, added: LPS and ATP).
`CN1CCCNC(=O)c2cccc(c2)C(=O)NCCCN(C)CCCNc2cccc3c2C(=O)c2cccc(c2C3=O)NCCC1` — result for “log2 fold change”: 1.7 (SAS; RNA-seq, item: THAP7-AS1 mRNA; 1 µM, 6 h; relative to: untreated cells).
`COC1CN([C@H]2CC[C@H]([C@@]3(C)Oc4c(Cl)cc(C(=O)NCc5c(SC)cc(C)[nH]c5=O)c(C)c4O3)CC2)C1`: “log2 fold change” 2.44 (RNA-seq, item: ATP7B; human, whole blood; dose not given, 24 h; relative to: pretreatment baseline).
Under “ferric reducing power”, `CC(=O)[O-].O.[Cu+2].[O-]c1ccc(Br)cc1C=NCCN1CCOCC1` is recorded as 55.1% (FRAP; 200 µM).
`CNS(=O)(=O)Nc1nccc(Cc2c(C)c3ccc(Oc4ncccc4F)cc3oc2=O)c1F` gave an IC50 of 5.87 nM (SW837; cell viability; 7 days).
For `O=C(N/N=C/c1ccc(C[n+]2ccccc2)cc1)N/N=C/c1ccc(C[n+]2ccccc2)cc1`, the ΔTm was 5.4 ± 2.2 °C (telomeric G4 DNA hybrid-2; FRET melting; 1 µM, DNA 0.2 µM, added: duplex DNA competitor 10 µM).
Under “percent of control”, `C=CC(=O)Nc1cccc(Cn2ncc3cnc(Nc4cnn(CCOC)c4)nc32)c1` is recorded as 8.2% (PIP5K2B human; binding, KINOMEscan; 100 nM; lower = stronger binding).
For `O=C(N/N=C/c1cc[n+](CC2CC2)c2ccccc12)C(=O)N/N=C/c1cc[n+](CC2CC2)c2ccccc12`, the ΔTm was 3.6 ± 0.7 °C (telomeric G4 DNA hybrid-2; FRET melting; 1 µM, DNA 0.2 µM, added: duplex DNA competitor 10 µM).
For `N=C(N)NCCC[C@@H]1NC(=O)[C@H](CCCNC(=N)N)NC(=O)[C@@H](CCCNC(=N)N)NC(=O)[C@@H](CCCNC(=N)N)NC(=O)[C@@H](C(c2ccccc2)c2ccccc2)NC(=O)[C@H](Cc2c[nH]c3ccccc23)NC(=O)[C@@H](C(c2ccccc2)c2ccccc2)NC1=O`, “reduction of viable cells” read > 95% (Aspergillus fumigatus; Af 293; 4 x MIC, 12 h).
The ΔTm of `O=C(N/N=C/c1ccc2c(ccc[n+]2Cc2ccccc2)c1)c1cccc(C(=O)N/N=C/c2ccc3c(ccc[n+]3Cc3ccccc3)c2)c1` is reported as 16.3 ± 0.7 °C (telomeric G4 DNA hybrid-2; FRET melting; 1 µM, DNA 0.2 µM).
For `CC(C)(C)c1cc(-c2ccc3cccnc3n2)nc(-c2ccc3cccnc3n2)c1.COc1ccncc1.[Cl-].[Cl-].[Ru+2].c1ccc2cc3nc4c5cccnc5c5ncccc5c4nc3cc2c1`, the EC50 was 56.7 ± 1.5 µM (SK-MEL-28; cell viability; dark).
For `O=C(N/N=C/c1cc[n+](CC2CC2)c2ccccc12)c1ccc2ccc(C(=O)N/N=C/c3cc[n+](CC4CC4)c4ccccc34)nc2n1`, the ΔTm was 25.4 ± 0.9 °C (telomeric G4 DNA hybrid-2; FRET melting; 1 µM, DNA 0.2 µM).
With `COc1cc(O)ccc1CCC(c1ccc(O)cc1)c1cc2c(c(C)c1O)OC(c1ccc(O)cc1)CC2` (mixture of isomers) the amount was 39 ± 1 pg/mL blood (item: RvE3; human whole blood; 3 µM, added: Escherichia coli).

Excerpt of the above:
With `C[n+]1cccc2cc(/C=N/NC(=O)c3cccc(C(=O)N/N=C/c4ccc5c(ccc[n+]5C)c4)c3)ccc21` the ΔTm was 7 ± 1.1 °C (telomeric G4 DNA hybrid-2; FRET melting; 1 µM, DNA 0.2 µM).
Under “log2 fold change”, `c1ccc(-c2n[nH]cc2-c2ccnc3ccccc23)nc1` is recorded as 0.01 (DUN1 (Candida albicans); kinase binding, MIB/MS competition; Candida albicans lysate; 1 µM; relative to: DMSO).
`Nc1ncc(-c2cc(-c3cnn(CC(F)(F)F)c3)ncc2F)nc1C(=O)NC1CNCC(F)C1` (stereo not shown) gave a remaining binding of 100% (ERBB2; KINOMEscan; 1 µM; relative to: DMSO control).
`C=C(NC(=O)c1csc(-c2nc3c(cc2O)-c2nc(cs2)C(=O)NC(C(C)O)C(=O)NC(=C(C)OC)c2nc(cs2)C(=O)NC2c4nc(cs4)C(=O)NC(COC(=O)c4c5c6c(cccc6n4O)COC(=O)C(OC4CC(C)(O)C(N(C)C)C(C)O4)C2OC5)c2nc-3cs2)n1)C(N)=O` (stereo not shown) has an MIC90 of 0.0312 µg/mL (≈ 0.0217 µM) (Enterococcus faecalis; agar dilution; vancomycin-intermediate).
